# Results collected from several papers.
# Each numbered part is a random draw from the data of one study; scales do not carry over between parts.
# Chain of UniProt Q32MK0 (whole entry, looked up): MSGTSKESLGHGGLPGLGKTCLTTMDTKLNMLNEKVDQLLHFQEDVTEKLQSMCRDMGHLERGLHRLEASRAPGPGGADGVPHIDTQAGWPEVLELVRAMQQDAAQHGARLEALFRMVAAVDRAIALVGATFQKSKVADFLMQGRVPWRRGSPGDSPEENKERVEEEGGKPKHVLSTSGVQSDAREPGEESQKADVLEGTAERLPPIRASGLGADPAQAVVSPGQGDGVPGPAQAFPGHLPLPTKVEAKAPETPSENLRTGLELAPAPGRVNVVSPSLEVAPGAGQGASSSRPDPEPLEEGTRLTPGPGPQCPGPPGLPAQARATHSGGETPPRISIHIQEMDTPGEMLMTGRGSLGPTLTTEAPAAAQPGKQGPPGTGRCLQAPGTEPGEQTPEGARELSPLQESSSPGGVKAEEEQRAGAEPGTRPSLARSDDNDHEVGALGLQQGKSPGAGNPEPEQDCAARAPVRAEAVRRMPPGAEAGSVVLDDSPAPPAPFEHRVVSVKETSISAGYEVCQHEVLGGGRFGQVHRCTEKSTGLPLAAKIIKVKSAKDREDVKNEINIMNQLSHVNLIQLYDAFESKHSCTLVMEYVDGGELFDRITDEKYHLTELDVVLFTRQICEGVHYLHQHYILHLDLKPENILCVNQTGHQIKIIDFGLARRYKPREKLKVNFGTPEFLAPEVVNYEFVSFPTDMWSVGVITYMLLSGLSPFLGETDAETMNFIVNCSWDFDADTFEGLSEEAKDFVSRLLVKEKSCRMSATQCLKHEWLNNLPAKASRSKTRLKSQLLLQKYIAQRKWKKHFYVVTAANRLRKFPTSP
# Chain of UniProt P07949 (whole entry, looked up): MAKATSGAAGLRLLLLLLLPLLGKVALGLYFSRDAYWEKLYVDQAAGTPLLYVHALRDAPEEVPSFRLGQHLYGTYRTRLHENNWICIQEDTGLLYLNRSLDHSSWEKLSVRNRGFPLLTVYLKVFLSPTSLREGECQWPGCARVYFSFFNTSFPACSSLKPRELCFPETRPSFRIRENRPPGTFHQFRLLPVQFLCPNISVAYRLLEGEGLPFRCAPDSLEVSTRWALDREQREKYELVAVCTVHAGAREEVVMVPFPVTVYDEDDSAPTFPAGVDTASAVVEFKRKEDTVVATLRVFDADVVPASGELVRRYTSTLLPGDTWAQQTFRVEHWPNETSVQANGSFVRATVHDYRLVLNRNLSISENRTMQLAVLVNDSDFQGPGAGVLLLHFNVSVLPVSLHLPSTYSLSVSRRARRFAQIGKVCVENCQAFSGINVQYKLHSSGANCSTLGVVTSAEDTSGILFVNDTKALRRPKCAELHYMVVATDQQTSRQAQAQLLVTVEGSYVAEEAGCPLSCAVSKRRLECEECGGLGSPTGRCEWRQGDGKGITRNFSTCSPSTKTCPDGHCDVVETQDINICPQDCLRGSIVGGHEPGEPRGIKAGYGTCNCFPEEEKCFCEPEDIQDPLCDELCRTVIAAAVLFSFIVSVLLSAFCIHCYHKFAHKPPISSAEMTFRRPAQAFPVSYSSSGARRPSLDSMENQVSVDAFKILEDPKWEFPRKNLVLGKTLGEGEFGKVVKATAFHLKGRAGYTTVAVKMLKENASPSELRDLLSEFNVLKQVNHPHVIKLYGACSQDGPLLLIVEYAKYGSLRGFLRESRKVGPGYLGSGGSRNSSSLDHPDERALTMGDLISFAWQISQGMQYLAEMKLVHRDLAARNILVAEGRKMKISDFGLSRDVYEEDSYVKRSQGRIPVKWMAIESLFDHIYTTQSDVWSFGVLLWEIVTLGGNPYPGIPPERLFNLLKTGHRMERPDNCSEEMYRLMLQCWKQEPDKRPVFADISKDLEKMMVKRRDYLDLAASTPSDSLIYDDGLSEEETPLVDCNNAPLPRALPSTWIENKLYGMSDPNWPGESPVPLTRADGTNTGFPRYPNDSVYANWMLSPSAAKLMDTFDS
# Chain of UniProt Q06187 (whole entry, looked up): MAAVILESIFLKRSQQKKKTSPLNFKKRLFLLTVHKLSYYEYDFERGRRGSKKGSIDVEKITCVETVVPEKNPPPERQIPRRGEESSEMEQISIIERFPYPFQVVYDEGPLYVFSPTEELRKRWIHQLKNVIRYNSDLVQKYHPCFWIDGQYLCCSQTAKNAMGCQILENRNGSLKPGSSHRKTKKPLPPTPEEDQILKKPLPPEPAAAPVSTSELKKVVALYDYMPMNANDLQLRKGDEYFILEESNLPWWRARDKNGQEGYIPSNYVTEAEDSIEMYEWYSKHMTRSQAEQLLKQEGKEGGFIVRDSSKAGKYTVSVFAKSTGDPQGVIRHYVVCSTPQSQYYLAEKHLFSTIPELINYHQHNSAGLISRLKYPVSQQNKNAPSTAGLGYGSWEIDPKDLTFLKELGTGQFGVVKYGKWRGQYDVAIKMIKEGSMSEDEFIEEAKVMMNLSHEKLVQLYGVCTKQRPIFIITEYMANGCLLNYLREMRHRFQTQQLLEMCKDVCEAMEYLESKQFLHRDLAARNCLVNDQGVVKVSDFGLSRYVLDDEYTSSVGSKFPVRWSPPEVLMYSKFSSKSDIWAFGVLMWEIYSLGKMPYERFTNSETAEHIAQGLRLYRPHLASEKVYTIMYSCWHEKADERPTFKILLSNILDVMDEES
# Chain of UniProt O15197 (whole entry, looked up): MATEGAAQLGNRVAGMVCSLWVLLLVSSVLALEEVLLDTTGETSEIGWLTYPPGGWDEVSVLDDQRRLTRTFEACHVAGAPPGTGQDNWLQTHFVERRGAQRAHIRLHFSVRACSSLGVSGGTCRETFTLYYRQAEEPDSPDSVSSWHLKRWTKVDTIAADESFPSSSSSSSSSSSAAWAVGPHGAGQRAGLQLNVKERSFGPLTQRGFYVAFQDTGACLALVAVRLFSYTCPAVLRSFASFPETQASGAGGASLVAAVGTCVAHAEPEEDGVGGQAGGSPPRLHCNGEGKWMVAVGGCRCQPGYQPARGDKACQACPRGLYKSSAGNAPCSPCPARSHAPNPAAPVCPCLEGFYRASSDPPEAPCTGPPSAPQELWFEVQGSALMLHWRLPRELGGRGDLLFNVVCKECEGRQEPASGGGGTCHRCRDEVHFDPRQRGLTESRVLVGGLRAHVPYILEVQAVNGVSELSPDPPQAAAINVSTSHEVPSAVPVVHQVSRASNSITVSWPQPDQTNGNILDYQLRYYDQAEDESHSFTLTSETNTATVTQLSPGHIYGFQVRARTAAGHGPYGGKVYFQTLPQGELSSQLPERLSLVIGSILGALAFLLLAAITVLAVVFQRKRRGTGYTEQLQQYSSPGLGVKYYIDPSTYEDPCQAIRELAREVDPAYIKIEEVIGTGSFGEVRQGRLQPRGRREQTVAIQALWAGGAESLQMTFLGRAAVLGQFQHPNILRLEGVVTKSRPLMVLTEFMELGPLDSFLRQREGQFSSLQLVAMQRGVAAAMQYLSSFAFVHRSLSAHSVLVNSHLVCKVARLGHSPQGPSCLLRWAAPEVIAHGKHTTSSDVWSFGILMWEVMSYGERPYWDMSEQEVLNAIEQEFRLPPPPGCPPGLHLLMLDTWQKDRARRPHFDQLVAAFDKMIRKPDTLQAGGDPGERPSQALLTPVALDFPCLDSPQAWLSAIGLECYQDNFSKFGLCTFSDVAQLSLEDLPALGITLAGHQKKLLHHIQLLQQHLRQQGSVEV
# Chain of UniProt Q00536 (whole entry, looked up): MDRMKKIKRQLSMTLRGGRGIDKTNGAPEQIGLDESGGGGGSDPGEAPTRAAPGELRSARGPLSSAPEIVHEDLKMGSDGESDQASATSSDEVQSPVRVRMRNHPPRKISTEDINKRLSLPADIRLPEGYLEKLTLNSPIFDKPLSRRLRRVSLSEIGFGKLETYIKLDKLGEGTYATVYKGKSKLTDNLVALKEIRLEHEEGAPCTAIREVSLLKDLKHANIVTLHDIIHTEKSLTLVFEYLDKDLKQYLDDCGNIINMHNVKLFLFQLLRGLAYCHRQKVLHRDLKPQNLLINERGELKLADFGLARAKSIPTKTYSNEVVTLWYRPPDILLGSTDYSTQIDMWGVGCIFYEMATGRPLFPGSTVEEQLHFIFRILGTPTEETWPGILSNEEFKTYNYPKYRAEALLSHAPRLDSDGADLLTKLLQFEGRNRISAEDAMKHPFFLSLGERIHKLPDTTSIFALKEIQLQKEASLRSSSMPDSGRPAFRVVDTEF
# Chain of UniProt Q9NY57 (whole entry, looked up): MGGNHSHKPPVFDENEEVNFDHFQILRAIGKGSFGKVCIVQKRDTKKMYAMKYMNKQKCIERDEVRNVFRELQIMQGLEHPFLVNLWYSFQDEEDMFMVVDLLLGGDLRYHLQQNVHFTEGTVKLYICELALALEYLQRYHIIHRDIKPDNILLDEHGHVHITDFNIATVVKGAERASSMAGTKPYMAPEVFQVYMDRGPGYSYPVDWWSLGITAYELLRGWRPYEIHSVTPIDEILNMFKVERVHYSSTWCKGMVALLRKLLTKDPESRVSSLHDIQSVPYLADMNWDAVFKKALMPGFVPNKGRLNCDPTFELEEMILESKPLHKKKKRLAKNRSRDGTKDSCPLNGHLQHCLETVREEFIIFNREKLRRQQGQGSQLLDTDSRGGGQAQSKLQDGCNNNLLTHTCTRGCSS
# Chain of UniProt Q9UQB9 (whole entry, looked up): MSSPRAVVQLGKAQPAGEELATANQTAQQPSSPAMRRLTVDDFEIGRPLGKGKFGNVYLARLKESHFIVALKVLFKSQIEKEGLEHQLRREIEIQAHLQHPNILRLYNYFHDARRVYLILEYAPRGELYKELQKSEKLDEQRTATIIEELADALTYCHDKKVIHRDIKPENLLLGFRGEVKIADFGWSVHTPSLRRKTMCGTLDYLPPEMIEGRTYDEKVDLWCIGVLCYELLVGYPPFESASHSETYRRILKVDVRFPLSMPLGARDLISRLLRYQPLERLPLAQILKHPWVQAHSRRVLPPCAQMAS

# Block 1
# Compound: O=c1nc(-c2ccccn2)sc2ccccc12
# Technique: competition with immobilised ligand
# Tested at: 1 µM
target,test,remaining binding
"FLT4 (Homo sapiens, UniProt P35916)",cell-free assay,84%
"BRAF (Homo sapiens, UniProt P15056)",cell-free assay,100%
"CDK16 (Homo sapiens, UniProt Q00536)",binding,100%
"Aurora kinase C (AURKC, Homo sapiens, UniProt Q9UQB9)",binding,97%
"MUSK (Homo sapiens, UniProt O15146)",binding,100%
"MAK (Homo sapiens, UniProt P20794)",binding,89%
"STK32B (Homo sapiens, UniProt Q9NY57)",binding,100%
"EPHB6 (Homo sapiens, UniProt O15197)",cell-free assay,61%
"CSNK1G2 (Homo sapiens, UniProt P78368)",cell-free assay,74%
"MYLK3 (Homo sapiens, UniProt Q32MK0)",binding,100%
"BTK (Homo sapiens, UniProt Q06187)",binding,96%
"Tyrosine-protein kinase ABL1, phosphorylated (ABL1, Homo sapiens, UniProt P00519, Y253F)",binding,83%
"RET (Homo sapiens, UniProt P07949)",binding,89%
"MAPK15 (Homo sapiens, UniProt Q8TD08)",binding,100%
"IRAK4 (Homo sapiens, UniProt Q9NWZ3)",binding,100%
"BMPR1A (Homo sapiens, UniProt P36894)",binding,100%

# Block 2
# Target: RNA binding protein fox-1 homolog 2, RRM domain, GST-SBP tag (RBFOX2, Homo sapiens, UniProt O43251-10, residues 100-194)
# Technique: RNA Bind-n-Seq
# Molecule type: RNA
# Medium: in vitro
# Tested at: 365 nM
# Setting: natural RNA segment, single round, ends assumed
# Reference: no-protein control
# Reading: higher = stronger binding
# Target sequence (chain): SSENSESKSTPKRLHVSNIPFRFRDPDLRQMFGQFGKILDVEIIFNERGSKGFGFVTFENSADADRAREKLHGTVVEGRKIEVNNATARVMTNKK
Strand,RBNS enrichment (R)
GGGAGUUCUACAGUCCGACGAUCGGAUAGGCUUUUGCAAAUAUAUCAGAUAAAUUUUUUGUUUCUUGUUUAUUUUUAGGUUAUUUUCUUGGAAGGUUGGGAAAAGAUGUUUGUUUUAACAGGUCAUGUACUACUGGAAUUCUCGGGUGCCAA,0.9
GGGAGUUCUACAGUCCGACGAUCCGUAUUUCUCAUAGGCUAUGCCAUGUGCGGAAUUCAAGUUACCAAUGUAACACUGGCCAGCGGGCCCAGCAAUCUCCAUGUGUACUUAUUACAGUCUUAUUUAACCAGGGUGGAAUUCUCGGGUGCCAA,0.325
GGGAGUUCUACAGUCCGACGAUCUUUACUGAAUCUGUCUACCCUUCAUUCAUGAGAACUCCAGAAUGAGUGUUGACCACUGAAGCAUCUUUUAAGUCUGUGUUCCAUUGUGCCAUUCAGGUUUGCUGUCACAUUGGAAUUCUCGGGUGCCAA,6.04
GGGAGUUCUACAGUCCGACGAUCGCUUGGCAGAGGGGAAAGUAGAAAGGGUCUUUAUUGGCUAUAAGCUGUUUCUAAGUGCUGAGAGUUUUGCUUGAAGAGGGAGCGAGCCAUCAAGUUCCCAGCUUUUCAGGUGGAAUUCUCGGGUGCCAA,0.664
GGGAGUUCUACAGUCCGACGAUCGCUACAGCACCAUCGCGUGCAUAGUGGGGAGCGACCUUAUAAGUGUGAUGACUGUGGAAAGGCCUUCUCGCAGAGCUCCGACCUCAUCCGCCACCAGCGGACCCACGCAGUGGAAUUCUCGGGUGCCAA,0.213
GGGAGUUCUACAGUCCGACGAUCUGAUCCUGGUAAUGCACUUUGGAUGGGAAGAAAAUGUACGUGCUUUUCAGAGGGGCUCUGAACAGAAUGAAAACCUAGUUCUUGCGUGUACUUUGAAGAAUGGAAUUGUAUGGAAUUCUCGGGUGCCAA,3.78
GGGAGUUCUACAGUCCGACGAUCGGAGAUUGAGUUUAUACCCCCUAGUCUCUCACAUUCAAAUCUAGUAGCCUGUAACCACUUUUAAAUGGCUUGAAAUUAGGAAACUUGUACAUUUAAUGUACACUUUGCGGUGGAAUUCUCGGGUGCCAA,1.79
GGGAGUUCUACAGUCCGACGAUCAUUAGGGUCUAGUUGCCCCUGGUCCUUAGCUUGCUCAGCUGCAAAAUAAGCGUGCUAAAUUAAAUUGUCUUAAGGUUUUUCCACUUCAUUUUGUGACUUUGUGUGGUUCGUGGAAUUCUCGGGUGCCAA,0.346

# Block 3
# Target: UBE2H UBC core domain (UniProt P62256)
# Chain of UniProt P62256 (whole entry, looked up): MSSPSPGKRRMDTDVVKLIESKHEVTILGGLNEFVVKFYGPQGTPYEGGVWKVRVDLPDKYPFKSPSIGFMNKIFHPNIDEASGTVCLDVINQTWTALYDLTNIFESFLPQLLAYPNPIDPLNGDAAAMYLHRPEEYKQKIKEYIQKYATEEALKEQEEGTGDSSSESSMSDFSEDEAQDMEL
# Technique: yeast two-hybrid
# Medium: yeast
# Setting: mostly zero background
# Reference: not given
# Reading: higher = stronger interaction
# B1: TRIM60 RING domain (UniProt Q495X7); chain ALVNLQEESSCPICLEYLKDPVTINCGHNFCRSCLSVSWKDLDDTFPCPVCRFCFPYKSFRR
# B2: RNF187 RING domain (UniProt Q5TA31); chain ALPAGPAEAACALCQRAPREPVRADCGHRFCRACVVRFWAEEDGPFPCPECADDCWQRAVEP
# B3: RNF166 RING domain (UniProt Q96A37); chain GDSGLEAQYTCPICLEVYHRPVAIGSCGHTFCGECLQPCLQVPSPLCPLCRLPFDPKKVDK
# B4: MKRN2 RING domain (UniProt Q9H000); chain FAFQASQDKVCSICMEVILEKASASERRFGILSNCNHTYCLSCIRQWRCAKQFENPIIKSCPECRVISEFVIPSV
# B5: RNF122 RING domain (UniProt Q9H9V4); chain AKKLQLYGQTCAVCLEDFKGKDELGVLPCQHAFHRKCLVKWLEVRCVCPMCNKPIASPSEAT
Sequence,lacZ reporter activity
B1 (TRIM60 RING domain),0
AEADPLGRFTCPVCLEVYEKPVQVPCGHVFCSACLQECLKPKKPVCGVCRSALAPGVRAV (RNF114 RING domain (UniProt Q9Y508)),0
B2 (RNF187 RING domain),0
B3 (RNF166 RING domain),0
RYRQMEERITCPICIDSHIRLVFQCGHGACAPCGSALSACPICRQPIRDRIQIF (MIB2 RING domain (UniProt Q96AX9)),0
B4 (MKRN2 RING domain),0
LDAASGHPLVCPLCHGQYERPCLLDCFHDFCTGCLRGRATDGRLSCPLCQHQTLVKGPSG (Rnf207 RING domain (UniProt Q3V3A7)),0
B5 (RNF122 RING domain),0

# Mixed results
# Tested at: 10 µM
Structure (SMILES),target or system,test,conditions,how to read,measurement,value
COc1cc(C(=O)NC2CC3CCCC(C2)N3CC(=O)Nc2ccccc2Cl)cc(OC)c1OC (stereo not shown),mouse MPNST tumor cells,"high-content immunofluorescence imaging, refers to: nuclear SOX9","12 h, mean of 2 replicates","reference: DMSO control, higher = more nuclear SOX9",nuclear SOX9 intensity,155 % of DMSO
CC1(C)S[C@@H]2[C@H](NC(=O)[C@H](N)c3ccc(O)cc3)C(=O)N2[C@H]1C(=O)O,Sarcocystis neurona,parasite growth,96 h,reference: untreated,log2 fold change,0.27

# A few entries again (block 1):
target,test,remaining binding
"CSNK1G2 (Homo sapiens, UniProt P78368)",cell-free assay,74%
"MAPK15 (Homo sapiens, UniProt Q8TD08)",binding,100%
"CDK16 (Homo sapiens, UniProt Q00536)",binding,100%
"BTK (Homo sapiens, UniProt Q06187)",binding,96%
